Published values gathered from unrelated publications.
Mode: inhibitor
MPO: Myeloperoxidase (MPO, Homo sapiens, UniProt P05164)
Chain of UniProt P05164 (whole entry, looked up): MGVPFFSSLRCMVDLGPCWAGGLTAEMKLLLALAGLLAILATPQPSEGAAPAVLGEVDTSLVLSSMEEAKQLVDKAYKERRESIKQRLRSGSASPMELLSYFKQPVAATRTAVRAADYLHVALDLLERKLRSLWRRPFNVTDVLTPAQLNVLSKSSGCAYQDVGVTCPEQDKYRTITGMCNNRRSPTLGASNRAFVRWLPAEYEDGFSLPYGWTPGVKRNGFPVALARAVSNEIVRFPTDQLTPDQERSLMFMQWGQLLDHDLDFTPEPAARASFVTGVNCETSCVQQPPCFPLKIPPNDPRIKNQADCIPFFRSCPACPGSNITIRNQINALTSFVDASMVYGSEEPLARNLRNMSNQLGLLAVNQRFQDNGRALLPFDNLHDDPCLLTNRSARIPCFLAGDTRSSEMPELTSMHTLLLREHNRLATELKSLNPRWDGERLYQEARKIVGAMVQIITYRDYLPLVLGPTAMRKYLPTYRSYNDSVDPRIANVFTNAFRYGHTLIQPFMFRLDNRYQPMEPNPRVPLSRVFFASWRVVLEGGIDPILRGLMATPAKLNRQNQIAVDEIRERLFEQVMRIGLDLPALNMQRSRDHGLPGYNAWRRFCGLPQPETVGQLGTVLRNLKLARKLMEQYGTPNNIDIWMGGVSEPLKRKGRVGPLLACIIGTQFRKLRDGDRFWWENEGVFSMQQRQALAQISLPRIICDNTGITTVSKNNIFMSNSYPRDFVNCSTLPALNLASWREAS
RET: Proto-oncogene tyrosine-protein kinase receptor Ret (RET, Homo sapiens, UniProt P07949)
Chain of UniProt P07949 (whole entry, looked up): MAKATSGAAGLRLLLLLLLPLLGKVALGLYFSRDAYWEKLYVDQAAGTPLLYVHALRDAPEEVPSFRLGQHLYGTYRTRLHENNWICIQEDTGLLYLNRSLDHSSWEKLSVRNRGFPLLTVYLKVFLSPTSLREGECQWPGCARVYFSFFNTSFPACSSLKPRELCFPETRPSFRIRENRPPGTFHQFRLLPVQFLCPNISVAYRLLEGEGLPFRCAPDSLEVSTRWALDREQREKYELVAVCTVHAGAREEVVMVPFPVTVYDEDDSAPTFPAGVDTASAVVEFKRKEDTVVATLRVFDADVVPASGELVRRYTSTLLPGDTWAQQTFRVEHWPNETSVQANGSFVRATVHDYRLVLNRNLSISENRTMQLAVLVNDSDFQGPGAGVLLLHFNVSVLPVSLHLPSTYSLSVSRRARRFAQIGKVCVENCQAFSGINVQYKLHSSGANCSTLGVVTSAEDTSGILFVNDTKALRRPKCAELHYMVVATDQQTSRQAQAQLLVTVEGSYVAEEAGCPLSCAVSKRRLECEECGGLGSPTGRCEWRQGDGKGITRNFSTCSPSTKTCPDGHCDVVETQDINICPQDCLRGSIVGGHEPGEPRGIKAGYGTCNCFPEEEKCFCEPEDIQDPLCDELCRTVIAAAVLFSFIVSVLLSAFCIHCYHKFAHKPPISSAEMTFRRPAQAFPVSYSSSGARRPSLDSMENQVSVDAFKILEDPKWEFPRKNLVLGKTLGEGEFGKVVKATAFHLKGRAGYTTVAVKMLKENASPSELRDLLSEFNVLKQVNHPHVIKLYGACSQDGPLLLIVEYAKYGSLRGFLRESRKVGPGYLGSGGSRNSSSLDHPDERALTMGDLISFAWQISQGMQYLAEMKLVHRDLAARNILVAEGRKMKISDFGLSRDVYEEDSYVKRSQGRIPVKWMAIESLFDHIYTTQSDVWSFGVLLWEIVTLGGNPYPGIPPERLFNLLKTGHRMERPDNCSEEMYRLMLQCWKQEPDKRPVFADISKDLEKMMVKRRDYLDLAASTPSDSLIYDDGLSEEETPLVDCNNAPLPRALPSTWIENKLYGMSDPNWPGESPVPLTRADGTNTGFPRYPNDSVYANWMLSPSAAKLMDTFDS
SLC2A1: Solute carrier family 2, facilitated glucose transporter member 1 (SLC2A1, Homo sapiens, UniProt P11166)
Chain of UniProt P11166 (whole entry, looked up): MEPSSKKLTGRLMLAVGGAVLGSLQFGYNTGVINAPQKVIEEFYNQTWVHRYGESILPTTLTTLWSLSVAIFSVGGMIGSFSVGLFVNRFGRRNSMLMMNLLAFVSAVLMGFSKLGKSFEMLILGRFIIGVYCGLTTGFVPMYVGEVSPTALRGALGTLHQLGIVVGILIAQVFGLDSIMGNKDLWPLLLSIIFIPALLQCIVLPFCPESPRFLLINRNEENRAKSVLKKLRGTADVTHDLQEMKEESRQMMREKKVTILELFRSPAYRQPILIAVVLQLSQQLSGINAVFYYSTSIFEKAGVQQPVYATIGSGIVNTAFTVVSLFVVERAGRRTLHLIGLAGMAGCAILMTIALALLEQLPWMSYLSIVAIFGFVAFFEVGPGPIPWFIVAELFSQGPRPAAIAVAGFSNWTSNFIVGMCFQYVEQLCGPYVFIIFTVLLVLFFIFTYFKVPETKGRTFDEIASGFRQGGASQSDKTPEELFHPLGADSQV
AAK1: AP2-associated protein kinase 1 (AAK1, Homo sapiens, UniProt Q2M2I8)
Chain of UniProt Q2M2I8 (whole entry, looked up): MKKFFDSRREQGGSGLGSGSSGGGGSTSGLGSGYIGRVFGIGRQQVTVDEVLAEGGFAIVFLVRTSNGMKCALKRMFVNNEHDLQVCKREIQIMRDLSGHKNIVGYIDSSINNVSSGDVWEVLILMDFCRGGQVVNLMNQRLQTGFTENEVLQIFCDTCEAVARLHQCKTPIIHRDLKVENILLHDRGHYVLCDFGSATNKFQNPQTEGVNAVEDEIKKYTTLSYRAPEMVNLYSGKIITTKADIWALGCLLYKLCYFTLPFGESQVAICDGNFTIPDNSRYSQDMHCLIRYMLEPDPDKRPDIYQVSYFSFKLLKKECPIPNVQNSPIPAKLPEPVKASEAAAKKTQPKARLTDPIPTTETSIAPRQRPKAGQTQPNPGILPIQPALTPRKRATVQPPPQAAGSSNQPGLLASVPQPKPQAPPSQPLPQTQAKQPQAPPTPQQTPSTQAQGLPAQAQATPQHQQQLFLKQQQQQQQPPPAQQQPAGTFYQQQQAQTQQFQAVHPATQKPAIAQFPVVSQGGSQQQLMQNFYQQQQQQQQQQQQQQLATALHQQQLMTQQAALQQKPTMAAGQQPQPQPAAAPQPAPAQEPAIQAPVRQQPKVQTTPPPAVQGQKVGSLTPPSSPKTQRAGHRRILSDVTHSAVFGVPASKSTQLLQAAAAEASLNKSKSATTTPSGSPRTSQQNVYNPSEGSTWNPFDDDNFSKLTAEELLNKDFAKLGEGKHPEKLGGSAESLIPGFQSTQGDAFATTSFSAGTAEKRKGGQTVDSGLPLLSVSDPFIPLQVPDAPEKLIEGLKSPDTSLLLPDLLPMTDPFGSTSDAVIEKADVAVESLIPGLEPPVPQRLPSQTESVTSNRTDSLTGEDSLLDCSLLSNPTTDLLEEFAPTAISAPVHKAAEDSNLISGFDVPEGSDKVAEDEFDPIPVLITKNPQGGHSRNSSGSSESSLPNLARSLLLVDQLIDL
Chain of UniProt O14744 (whole entry, looked up): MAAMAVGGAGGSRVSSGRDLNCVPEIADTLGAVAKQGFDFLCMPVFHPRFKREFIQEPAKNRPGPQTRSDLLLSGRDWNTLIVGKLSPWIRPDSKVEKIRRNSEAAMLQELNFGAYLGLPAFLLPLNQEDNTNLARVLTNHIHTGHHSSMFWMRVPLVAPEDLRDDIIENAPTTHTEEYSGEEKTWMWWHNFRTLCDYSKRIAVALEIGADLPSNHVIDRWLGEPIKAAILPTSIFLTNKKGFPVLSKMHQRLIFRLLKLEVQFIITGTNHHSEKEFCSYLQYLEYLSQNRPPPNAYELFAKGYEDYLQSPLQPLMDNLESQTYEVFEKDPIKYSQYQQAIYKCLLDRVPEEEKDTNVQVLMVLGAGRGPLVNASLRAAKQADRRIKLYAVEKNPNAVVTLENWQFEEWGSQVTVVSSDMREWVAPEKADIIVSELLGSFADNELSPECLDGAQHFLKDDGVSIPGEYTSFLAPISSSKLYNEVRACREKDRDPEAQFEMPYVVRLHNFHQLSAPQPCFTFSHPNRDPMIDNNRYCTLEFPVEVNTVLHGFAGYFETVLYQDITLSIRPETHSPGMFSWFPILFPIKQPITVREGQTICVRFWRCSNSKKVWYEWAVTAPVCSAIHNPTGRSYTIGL
Chain of UniProt Q00535 (whole entry, looked up): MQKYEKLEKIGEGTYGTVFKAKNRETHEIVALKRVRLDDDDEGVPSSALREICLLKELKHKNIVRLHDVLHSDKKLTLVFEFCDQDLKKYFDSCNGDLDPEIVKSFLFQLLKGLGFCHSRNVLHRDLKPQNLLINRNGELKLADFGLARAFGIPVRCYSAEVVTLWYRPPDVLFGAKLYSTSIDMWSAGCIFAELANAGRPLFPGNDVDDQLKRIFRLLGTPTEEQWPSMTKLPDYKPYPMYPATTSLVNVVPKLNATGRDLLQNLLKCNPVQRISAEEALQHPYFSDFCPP
Chain of UniProt P27361 (whole entry, looked up): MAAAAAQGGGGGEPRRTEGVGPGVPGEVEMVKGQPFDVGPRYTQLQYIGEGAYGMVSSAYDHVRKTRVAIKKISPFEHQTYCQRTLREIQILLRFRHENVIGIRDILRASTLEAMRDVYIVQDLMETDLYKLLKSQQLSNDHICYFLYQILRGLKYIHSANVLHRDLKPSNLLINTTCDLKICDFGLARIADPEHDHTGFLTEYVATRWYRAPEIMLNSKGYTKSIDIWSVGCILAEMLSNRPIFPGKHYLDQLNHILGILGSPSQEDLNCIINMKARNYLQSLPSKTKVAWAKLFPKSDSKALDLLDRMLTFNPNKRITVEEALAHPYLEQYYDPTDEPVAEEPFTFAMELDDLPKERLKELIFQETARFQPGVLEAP

target | observed | method | cell line | tested at | time | remaining activity | Compound
MPO | enzyme activity |  |  | 78 nM |  | 103% | CC(C)OCCn1c(=S)[nH]c(=O)c2[nH]ccc21
RET | enzyme activity | radiometric |  | 0.1 µM |  | 141% | COc1ccc(Cl)cc1NC(=O)Nc1ccc2nc(NC(=O)c3ccccc3)sc2c1
PI4KB (Homo sapiens, UniProt Q9UBF8) | enzyme activity | ADP detection |  | 10 µM |  | 98% | Cc1cc([C@@H](C)Nc2ccccc2C(=O)O)c2nc(N3CCC(F)(F)CC3)c(C#N)c(=O)n2c1
YES1 (Homo sapiens, UniProt P07947) | enzyme activity | radiometric |  | 1 µM |  | 85% | CNc1ncc2c(/C=C/C(=O)N3CCC(OC)CC3)nn(Cc3cccc(C(F)(F)F)c3)c2n1
SLC2A1 | transporter uptake | radiometric | NCI-H1299 | 30 µM |  | 67% | C/C(=N\O)c1ccc(-c2cccc(C#N)c2)c(Cl)c1O
RET | enzyme activity | radiometric |  | 0.1 µM |  | 130% | Cc1ccc(Nc2nc(N3CCN(C(=O)c4ccco4)CC3)nc3[nH]ncc23)cc1
SLC2A1 | transporter uptake | radiometric | NCI-H1299 | 30 µM |  | 8% | C/C(=N\O)c1ccc(-c2ccc(O)c(C)c2)c(Cl)c1O
RET | enzyme activity | radiometric |  | 10 µM |  | 99.1% | NC1=Nc2nc3ccccc3n2C(c2c[nH]nc2-c2cccc(O)c2)N1 (stereo not shown)
Cyclin-dependent kinase 5, with p35 (CDK5, Homo sapiens, UniProt Q00535) | enzyme activity | radiometric |  | 250 µM | 20 min | 27% | CC[C@H](C)[C@H](NC(=O)[C@H](CCC(N)=O)NC(=O)[C@@H](NC(=O)[C@H](CCSC)NC(=O)[C@H](CCCCN)NC(=O)[C@H](CO)NC(=O)[C@@H](NC(=O)[C@H](CCSC)NC(=O)[C@H](CC(C)C)NC(=O)[C@H](CC(N)=O)NC(=O)[C@@H](NC(=O)[C@@H](NC(=O)[C@H](CO)NC(=O)[C@H](CC(C)C)NC(=O)[C@H](C)NC(=O)[C@H](CCCNC(=N)N)NC(=O)[C@H](CCC(=O)O)NC(=O)[C@H](Cc1ccc(O)cc1)NC(=O)[C@H](Cc1ccccc1)NC(=O)[C@H](C)NC(=O)[C@H](CC(N)=O)NC(=O)[C@@H](N)CCCCN)[C@@H](C)CC)[C@@H](C)CC)[C@@H](C)O)C(C)C)C(=O)N[C@@H](CC(N)=O)C(=O)N[C@H](C(=O)O)C(C)C
PRKCD (Homo sapiens, UniProt Q05655) | enzyme activity |  |  | 10 µM |  | 15% | CCCOc1ccc(OC)c(F)c1C(=O)c1ccc(C(=O)N[C@@H]2CNC[C@H]2NC(=O)c2ccc3[nH]ncc3c2)cc1
SLC2A1 | transporter uptake | radiometric | NCI-H1299 | 30 µM |  | 102% | C/C(=N\O)c1ccc(-c2ccc(F)cc2)c(Cl)c1O
MPO | enzyme activity |  |  | 2.5 µM |  | 22.9% | COc1ccc(Cl)cc1-c1cc(=O)[nH]c(=S)n1CC(N)=O
PIP5K1A (Homo sapiens, UniProt Q99755) | enzyme activity |  |  | 1 µM |  | 109% | COc1cc(-c2cncc3c2CN(C)Cc2cc(N4CCNCC4)ccc2-3)cc(OC)c1OC
PRMT5 (Homo sapiens, UniProt O14744) | enzyme activity | radiometric |  | 20 µM |  | 12.8% | N=C(N)c1ccc(-c2ccc(-c3ccc(OCCCCCCCCOc4ccc(-c5ccc(-c6ccc(C(=N)N)cc6)o5)cc4)cc3)o2)cc1
RET | enzyme activity | radiometric |  | 0.1 µM |  | 102% | O=C(NCc1cccnc1-n1cnc2ccccc21)c1ccc2[nH]c(=O)[nH]c2c1
MAPK3 (Homo sapiens, UniProt P27361) | enzyme activity | radiometric |  | 50 µM | 20 min | 97% | CC[C@H](C)[C@H](NC(=O)[C@H](CCC(N)=O)NC(=O)[C@H](CC(C)C)NC(=O)[C@H](CCSC)NC(=O)[C@H](CCCCN)NC(=O)[C@H](CO)NC(=O)[C@H](CO)NC(=O)[C@H](CCSC)NC(=O)[C@H](CC(C)C)NC(=O)[C@H](CC(N)=O)NC(=O)[C@@H](NC(=O)[C@@H](NC(=O)[C@H](CO)NC(=O)[C@H](CC(C)C)NC(=O)[C@H](CS)NC(=O)[C@H](CCCNC(=N)N)NC(=O)[C@H](CC(=O)O)NC(=O)[C@H](Cc1c[nH]c2ccccc12)NC(=O)[C@H](Cc1ccccc1)NC(=O)[C@H](C)NC(=O)[C@H](CCC(=O)O)NC(=O)[C@@H](N)CCCCN)C(C)C)[C@@H](C)CC)C(=O)N[C@@H](CC(N)=O)C(=O)N[C@@H](C)C(=O)O
RET | enzyme activity | radiometric |  | 10 µM |  | 25.3% | CCn1cc(C(=O)Nc2cccc(O)c2)c(=O)c2cc(F)c(N3CCN(C(C)=O)CC3)cc21
AAK1 | enzyme activity | radiometric |  | 1 µM |  | 33% | O=C(NCCCNc1ccnc(Nc2cccc(NC(=O)N3CCCC3)c2)n1)C1CCC1
RET | enzyme activity | radiometric |  | 10 µM |  | 95.9% | Cc1ccc2c(=O)c(C(=O)Nc3ccc(C)c(C)c3)cn(CC(=O)NC3CCCC3)c2n1
MPO | enzyme activity |  |  | 0.3125 µM |  | 35.6% | NC/C(=C\F)COc1cccc(Cn2c(=S)[nH]c(=O)c3[nH]cnc32)c1
RET | enzyme activity | radiometric |  | 0.1 µM |  | 120% | COc1ccc(-n2nc(C(=O)Nc3ccc4c(c3)OCO4)c(=O)cc2OC)cc1OC
AAK1 | enzyme activity | radiometric |  | 1 µM |  | 12% | NS(=O)(=O)c1ccc(CNc2nc(Nc3cccc(CN4CCOCC4)c3)ncc2Br)cc1

Excerpt of the above:
target | observed | method | cell line | tested at | time | remaining activity | Compound
SLC2A1 | transporter uptake | radiometric | NCI-H1299 | 30 µM |  | 67% | C/C(=N\O)c1ccc(-c2cccc(C#N)c2)c(Cl)c1O
RET | enzyme activity | radiometric |  | 0.1 µM |  | 130% | Cc1ccc(Nc2nc(N3CCN(C(=O)c4ccco4)CC3)nc3[nH]ncc23)cc1
SLC2A1 | transporter uptake | radiometric | NCI-H1299 | 30 µM |  | 8% | C/C(=N\O)c1ccc(-c2ccc(O)c(C)c2)c(Cl)c1O
